Assay results pooled from the literature.
Each numbered part is a random draw from the data of one study; scales do not carry over between parts. Values joined by “and” are separate records of one study, mostly repeats; a detail may differ.

Study 1 — cell line: U-87 MG; tested at: concentration not given; baseline: DMSO
SMILES: CCN1/C(=C/C=C2\CCCC(/C=C/C3=[N+](CC)c4ccccc4C3(C)C)=C2NCCCCCCCCN2CCC(Nc3nc4ccccc4n3Cc3ccc(F)cc3)CC2)C(C)(C)c2ccccc21
| test | log2 fold change |
| --- | --- |
| measured: CEP85L mRNA | 0.833 |
| measured: STEAP3 mRNA | -1.19 |
| measured: FBXO43 mRNA | -1.74 |
| measured: TTC31 mRNA | -0.846 |
| measured: DPF3 mRNA | -1.75 |
| measured: METTL7A mRNA | -3.62 |
| measured: FBXL2 mRNA | -1.13 |
| measured: HSPB3 mRNA | -2.15 |
| measured: PNPLA8 mRNA | 1.31 |
| measured: TLR3 mRNA | -1.95 |
| measured: SCN2A mRNA | -2.63 |

Study 2 — cell line: SK-OV-3; method: DNA microarray; baseline: untreated control
Compound: COCC1CC2C(CCC3C(O)CCC32)c2ccc(O)cc21 (stereo not drawn)
| test | conditions | expression ratio |
| --- | --- | --- |
| measured: ACTB | 100 µM | 0.509 and 0.503 and 0.537 and 0.538 and 0.53 |
| measured: GAPDH | 25 µM | 0.834 and 0.857 and 0.852 and 0.831 and 0.839 |
| measured: ACTB | 25 µM | 0.821 and 0.782 and 0.801 and 0.816 and 0.826 |
| measured: GAPDH | 100 µM | 0.96 and 0.954 and 0.95 and 0.934 and 0.94 |

Study 3 — organism: Leishmania donovani; method: high-content imaging; strain: MHOM/IN/80/DD8; sample: intracellular amastigotes in THP-1; tested at: 20 µM
| SMILES | inhibition |
| --- | --- |
| COc1ccc(OC)c(Nc2c3c(nc4ccccc24)CCC3)c1 | inactive |
| CC1CCN(CC(=O)Nc2c3c(nc4ccccc24)CCC3)CC1 | inactive |
| COc1ccccc1Nc1c2c(nc3ccccc13)CCC2 | inactive |
| c1ccc2c(NCCCN3CCOCC3)c3c(nc2c1)CCC3 | inactive |
| O=C(CN1CCCCC1)Nc1c2c(nc3ccccc13)CCC2 | inactive |
| Cc1ccc2nc3c(c(Nc4cccc(O)c4)c2c1)CCC3 | inactive |
| CCOc1ccc(Nc2c3c(nc4ccc(Cl)cc24)CCC3)cc1 | inactive |
| O=C(CN1CCOCC1)Nc1c2c(nc3ccccc13)CCC2 | inactive |

Study 4 — cell line: Gaucher fibroblasts L444P/L444P; method: 4-MUG hydrolysis, cell lysate; tested at: 10 µM; baseline: DMSO
| SMILES | GCase activity |
| --- | --- |
| CCOc1ccc2nc(Sc3nc(N4CCOCC4)nc(N4CCOCC4)n3)sc2c1 | 86.1% and 117% and 120% and 104% and 123% |
| Ic1ccc(Nc2nc(NCCN3CCCCC3)nc(N3CCOCC3)n2)cc1 | 86.9% and 99.7% and 110% and 102% and 92% and 81.5% |
| Ic1ccc(Nc2nc(NCCN3CCOCC3)nc(N3CCNCC3)n2)cc1 | 9.16% and 7.81% and 5.72% and 7.88% and 6.38% and 3.48% |
| CCOc1ccc2nc(Sc3nc(NCCN4CCOCC4)nc(Nc4ccc(I)cc4)n3)sc2c1 | 111% and 123% and 133% and 118% and 134% |
| Ic1ccc(Nc2nc(NCCCN3CCOCC3)nc(N3CCOCC3)n2)cc1 | 151% and 157% and 141% and 118% and 111% and 124% |
| Ic1ccc(Nc2nc(NCCN3CCOCC3)nc(N3CCCCC3)n2)cc1 | 86.5% and 93.6% and 102% and 90.1% and 92.7% and 87.5% |
| Ic1ccc(Nc2nc(NCCN3CCOCC3)nc(N3CCCC3)n2)cc1 | 105% and 93.3% and 83.4% |
| Ic1ccc(Nc2nc(N3CCOCC3)nc(N3CCOCC3)n2)cc1 | 195% and 78.9% and 193% and 59.7% and 202% |

Study 5
Compound: Cc1ccc(O)c(C)c1-c1cnc2[nH]c(-c3cnc(N)nc3)cc2c1C#N
PKMYT1: Membrane-associated tyrosine- and threonine-specific cdc2-inhibitory kinase (PKMYT1, Homo sapiens, UniProt Q99640)
Sequence of UniProt Q99640 (whole entry, looked up): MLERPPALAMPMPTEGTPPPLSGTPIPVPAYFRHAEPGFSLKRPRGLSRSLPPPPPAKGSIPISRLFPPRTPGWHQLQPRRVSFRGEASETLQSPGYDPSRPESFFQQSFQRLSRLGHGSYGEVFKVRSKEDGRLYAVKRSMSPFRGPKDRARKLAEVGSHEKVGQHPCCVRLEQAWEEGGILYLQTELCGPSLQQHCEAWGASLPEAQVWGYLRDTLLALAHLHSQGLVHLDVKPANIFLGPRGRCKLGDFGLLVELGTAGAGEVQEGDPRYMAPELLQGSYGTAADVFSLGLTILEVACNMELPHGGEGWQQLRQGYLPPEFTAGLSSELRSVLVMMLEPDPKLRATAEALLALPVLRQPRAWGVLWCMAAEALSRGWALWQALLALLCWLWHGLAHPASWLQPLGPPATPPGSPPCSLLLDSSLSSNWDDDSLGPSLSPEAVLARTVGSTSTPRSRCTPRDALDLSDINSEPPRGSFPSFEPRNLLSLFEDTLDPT
| target or system | test | conditions | inhibition |
| --- | --- | --- | --- |
| NCI-H1648 | cell proliferation | 775.2 nM | -3.14% |
| HuCCT-1 | cell proliferation | 10000 nM | 98.9% |
| HCC1806 | cell proliferation | 4.572 nM | 8.9% |
| NCI-H1648 | cell proliferation | 20930 nM | 91.3% |
| KLE | cell proliferation | 41.15 nM | 3.99% |
| HCC1569 | automated capillary immunoblot, measured: CDK1 phospho-Thr14 | 0.46 nM | -2.53% |
| HuCCT-1 | cell proliferation | 13.72 nM | -2.54% |
| PKMYT1 | cell-free assay, TR-FRET | 0.1111 µM | 98.9% |
| NCI-H1648 | cell proliferation | 6976.74 nM | 87.4% |
| KLE | cell proliferation | 13.72 nM | 3.62% |
| PKMYT1 | enzyme activity, inhibitor | 1.372 nM | 23.5% |
| LN-229 | cell proliferation | 13.72 nM | 3.34% and 11.5% |
| HCC1806 | cell proliferation | 123.5 nM | 26.2% |
| HCC1806 | cell proliferation | 1111.11 nM | 89.3% |
| PKMYT1 | – | 0.0001524 µM | 1.44% and -0.342% |

Study 6 — cell line: MDA-MB-231; read-out: cell viability; method: CellCounting-Lite; tested at: 0.9145 nM; temperature: 37 °C; reading: higher = more viable cells
| SMILES | luminescence signal |
| --- | --- |
| CCn1cnc2c(NCc3nc4cc(Cl)c(Cl)cc4[nH]3)nc(N3CCN(C(=O)CNC(C)=O)CC3)nc21 | 477000 a.u. and 471000 a.u. and 499000 a.u. |
| CCn1cnc2c(NCc3nc4cc(F)c(F)cc4[nH]3)nc(N3CCn4ncnc4C3)nc21 | 547000 a.u. and 506000 a.u. and 502000 a.u. |
| CCn1cnc2c(NCc3nc4cc(Cl)c(Cl)cc4[nH]3)nc(N3CCN(c4ccccn4)CC3)nc21 | 631000 a.u. and 602000 a.u. and 594000 a.u. |
| CCCCOc1nc(NCc2nc3cc(Cl)c(Cl)cc3[nH]2)c2ncn(CC)c2n1 | 628000 a.u. and 670000 a.u. and 459000 a.u. |
| CCn1cnc2c(NCc3nc4cc(Cl)c(Cl)cc4[nH]3)nc(N3CCN(S(C)(=O)=O)CC3)nc21 | 544000 a.u. and 438000 a.u. and 494000 a.u. |
| CCn1cnc2c(NCc3nc4cc(Cl)c(Cl)cc4[nH]3)nc(N3CCN(C(=O)c4cccnc4)CC3)nc21 | 414000 a.u. and 437000 a.u. and 416000 a.u. |
| CCn1cnc2c(NCc3nc4cc(Cl)c(Cl)cc4[nH]3)nc(N3CCN(C(=O)c4ccccc4)CC3)nc21 | 476000 a.u. and 483000 a.u. and 449000 a.u. |
| CCn1cnc2c(NCc3nc4cc(Cl)c(Cl)cc4[nH]3)nc(N3CCN(C(=O)c4ccccn4)CC3)nc21 | 455000 a.u. and 431000 a.u. |
| CC(=O)N1CCN(c2nc(NCc3nc4cc(Cl)c(Cl)cc4[nH]3)c3ncn(C(C)C)c3n2)CC1 | 560000 a.u. and 502000 a.u. and 483000 a.u. |

Study 7
Compound: COc1ccc2c(c1)OC(O)(C(=O)O)C(=O)N2Cc1ccccc1 (stereo not drawn)
| organism | test | system | conditions | inhibition |
| --- | --- | --- | --- | --- |
| Arabidopsis thaliana | hypocotyl length | Col-0 | 3.125 µg/mL, 7 days, seed germination, dark | 5.9% |
| Arabidopsis thaliana | root length | Col-0, seedlings | 6.25 µg/mL | 9.88% |
| Arabidopsis thaliana | root length | Col-0 | 100 µg/mL, 7 days, seed germination, dark | 81% |
| Arabidopsis thaliana | root length | Col-0 | 12.5 µg/mL, 7 days, seed germination, dark | 10.2% |
| Arabidopsis thaliana | root length | Col-0 | 3.13 µg/mL, 7 days, seed germination, dark | 6.9% |
| Oryza sativa | fresh weight | – | soil surface spray, 150 g ai/ha, 21 days, pre-emergence crop safety | 15% and 11.5% and 12.5% |
| Setaria viridis | fresh weight | – | 150 g ai/ha, pre-emergence treatment | 28.5% and 32.1% and 31.2% |
| Alopecurus aequalis | fresh weight | – | 150 g ai/ha, pre-emergence treatment | 79.2% and 76.4% and 79.3% |
| Arabidopsis thaliana | hypocotyl length | Col-0 | 50.0 µg/mL, 7 days, seed germination, dark | 36.6% |
| Arabidopsis thaliana | hypocotyl length | Col-0, seedlings | 25 µg/mL | 22.7% |
| Echinochloa crus-galli | fresh weight | – | 150 g ai/ha, post-emergence treatment | 48.5% and 42.9% and 50.2% |
| Arabidopsis thaliana | root length | Col-0, seedlings | 100 µg/mL | 81% |
| Arabidopsis thaliana | hypocotyl length | Col-0, seedlings | 6.25 µg/mL | 9.18% |
| Triticum aestivum | fresh weight | – | soil surface spray, 150 g ai/ha, 21 days, pre-emergence crop safety | 3.1% and 2.5% and 4.3% |
